Measurements collected from several papers.
A part holds a random share of what one study measured. Changes are numbered by the printed parent chain.

Set 1
Target: Interferon regulatory factor 3, full length, phosphomimetic (IRF3, Homo sapiens, UniProt Q14653, residues 1-427, S386D/S396D/S398D/S402D/T404D/S405D)
Sequence of UniProt Q14653 (whole entry, unmodified, looked up): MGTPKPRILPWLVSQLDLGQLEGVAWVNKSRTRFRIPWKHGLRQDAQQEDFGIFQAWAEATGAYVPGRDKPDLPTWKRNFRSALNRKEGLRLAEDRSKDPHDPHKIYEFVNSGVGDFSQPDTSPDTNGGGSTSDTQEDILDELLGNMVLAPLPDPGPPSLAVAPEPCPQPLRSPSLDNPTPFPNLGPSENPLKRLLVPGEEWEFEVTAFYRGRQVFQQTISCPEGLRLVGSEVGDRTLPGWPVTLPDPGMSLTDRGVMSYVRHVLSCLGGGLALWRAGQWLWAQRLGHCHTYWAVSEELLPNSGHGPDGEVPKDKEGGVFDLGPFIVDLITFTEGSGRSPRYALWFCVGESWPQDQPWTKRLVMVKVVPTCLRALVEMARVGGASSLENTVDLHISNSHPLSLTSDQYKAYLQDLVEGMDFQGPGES
Technique: protein-binding microarray
Form: double-stranded DNA, one strand shown
Medium: in vitro
Tested at: 2540 nM top
Notes: 60-bp whole probe
Together with: salmon DNA 0.4 mg/ml
Baseline: random background probes
Direction: higher = stronger binding
Constant ends, left off below: GCCTAGCAC … GTCTTGATTCGCTTGACGCTGCTG
Strand | fitted relative affinity
TTAGGACTGGGGACTGTGTTAGTGCTA | -1.13 z-score
TCAACTGTGTGTTTGAGACTGTGCTAG | -0.549 z-score
TTAGGTTTGGACACTGGGTTAGTGCTA | -0.533 z-score
GACGAACTAGGGTTTCGAGACGTGCTA | 0.46 z-score
GTCGATATCGGGTTTCGAGACGTGCTA | 1.98 z-score
GACGATTTCGGGTAACGAGACGTGCTA | 1.45 z-score
TTAGGTTTCGGTATCGGTAAGTGCTAG | 9.04 z-score
GACGAGCTCAGACTGGAGACGTGCTAG | -0.506 z-score
TCAACTCTCTCCATGTGACTGTGCTAG | 0.425 z-score
TTAGAACTGGGGTAGCGATTAGTGCTA | -0.945 z-score
TTAGATTTCGGGCATCGATTAGTGCTA | 0.196 z-score
GACGGTATCGTTATCGGGACGTGCTAG | 3.3 z-score
GACGGTATCGGACTGGGGGCGTGCTAG | 1.59 z-score
GAAGATTCCAGTTTCGAGACGTGCTAG | 3.78 z-score
TTAGGTATCGACACTGGGGTAGTGCTA | 0.041 z-score
GACGGTCTCCTCCTGCTGACGTGCTAG | 0.702 z-score
TTAGATCACAGTTTCGATTAGTGCTAG | 3.3 z-score

Set 2
Target: CCNE1, cyclin fold, Cln2 fusion (human)
Technique: yeast growth competition, sequencing
Medium: yeast
Notes: strong parent motif
Baseline: not given
Direction: higher = stronger binding
Parent: CDKN1A docking peptide (human); SKACRRLFGPVDS
Substitution | normalised enrichment score
SKACRRLEGPVDS [F8E] | -0.381
SKECRRLFGPVDS [A3E] | 1.14
SKACRRTFGPVDS [L7T] | 0.511
SKACRLLFGPVDS [R6L] | 2.22
SKACIRLFGPVDS [R5I] | 0.597
SKACRRLFMPVDS [G9M] | 5.77
SKSCRRLFGPVDS [A3S] | 0.886
SVACRRLFGPVDS [K2V] | 3.72
SKACRRLFGAVDS [P10A] | 5.09
STACRRLFGPVDS [K2T] | 5.73
SKACRRPFGPVDS [L7P] | -0.0552
SKACRRHFGPVDS [L7H] | 0.165
SKACRRLFGPVVS [D12V] | 4.1
SKAKRRLFGPVDS [C4K] | 4.98
SKACRRLFGPPDS [V11P] | 5.34
SKACRRLFGPADS [V11A] | 6.11
SKALRRLFGPVDS [C4L] | 0.879
SKACRRLLGPVDS [F8L] | 0.0468
SKACRRLFGHVDS [P10H] | 4.37
SKACRRLFGPYDS [V11Y] | 6.14
SKACRRLGGPVDS [F8G] | 0.285
SKACRILFGPVDS [R6I] | 4.23
SKACRRMFGPVDS [L7M] | 0.467
SKACRRLFGPVIS [D12I] | 4.37
SKAGRRLFGPVDS [C4G] | 0.236

Set 3
Target: ABI1, truncated, D143A, DHFR fusion (Arabidopsis thaliana)
Technique: DHFR PCA, deep sequencing
Medium: yeast
Notes: methotrexate growth selection, single substitutions
Together with: (+)-ABA 0.032 µM
Baseline: wild-type fitted maximum
Direction: higher = stronger binding
Parent: PYL1, truncated, DHFR fusion (Arabidopsis thaliana); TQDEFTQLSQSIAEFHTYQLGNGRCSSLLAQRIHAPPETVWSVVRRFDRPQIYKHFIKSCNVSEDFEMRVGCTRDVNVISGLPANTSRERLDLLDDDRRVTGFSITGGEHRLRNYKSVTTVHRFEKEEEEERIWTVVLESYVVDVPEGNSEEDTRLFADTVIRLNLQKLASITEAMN; partner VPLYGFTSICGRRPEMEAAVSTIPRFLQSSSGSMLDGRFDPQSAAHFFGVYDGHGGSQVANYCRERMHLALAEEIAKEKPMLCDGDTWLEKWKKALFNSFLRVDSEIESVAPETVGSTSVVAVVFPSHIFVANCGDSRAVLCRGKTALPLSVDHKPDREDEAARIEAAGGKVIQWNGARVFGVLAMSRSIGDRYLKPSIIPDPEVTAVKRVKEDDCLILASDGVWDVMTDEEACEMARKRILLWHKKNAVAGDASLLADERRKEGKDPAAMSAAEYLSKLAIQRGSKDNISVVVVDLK
Substitution | relative binding score
F66E | 5.61%
D144S | -1.59%
N177S | 43.2%
R46T | -0.49%
V100W | -4.13%
D92Y | 7.54%
R46N | -15%
R163D | -0.627%
R90Y | -0.841%
Y141P | -4.92%
R74I | -3.33%
S104N | 4.29%
T154D | -6.23%
I52P | -3.02%
N77V | 57.6%
T39M | 28%
V40W | -0.34%
E151M | 27.7%
Q10A | 45.1%
N114V | 0.308%
T135V | -5.54%
H55F | 11.5%
T86F | 22.1%
S104W | -3.81%
V118M | 4.61%

Set 4
Target: UBE2J1 UBC core domain (UniProt Q9Y385)
Technique: yeast two-hybrid
Medium: yeast
Notes: mostly zero background
Baseline: not given
Direction: higher = stronger interaction
B1: RNF170 RING domain (UniProt Q96K19); chain TRQQFYTDMYCPICLHQASFPVETNCGHLFCGACIIAYWRYGSWLGAISCPICRQTVTLLLTVF
B2: ARK2C RING domain (UniProt Q6ZSG1); chain EGEESDTDEKCTICLSMLEDGEDVRRLPCMHLFHQLCVDQWLAMSKKCPICRVDIETQLGAD
B3: TRIM63 RING domain (UniProt Q969Q1); chain PMENLEKQLICPICLEMFTKPVVILPCQHNLCRKCANDIFQAANPYWTSRGSSVSMSGGRFRCPTCRHEVIMDRHGV
B4: CUL9 RING domain (UniProt Q8IWT3); chain AQAVPVRPDHCPVCVSPLGCDDDLPSLCCMHYCCKSCWNEYLTTRIEQNLVLNCTCPIADCPAQPTGAFIR
Residues (chain): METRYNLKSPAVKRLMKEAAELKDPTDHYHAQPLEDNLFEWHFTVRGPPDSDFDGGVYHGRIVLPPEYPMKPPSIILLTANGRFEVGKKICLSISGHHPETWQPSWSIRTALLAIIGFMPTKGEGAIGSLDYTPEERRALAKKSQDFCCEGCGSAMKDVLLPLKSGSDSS
Molecule | lacZ reporter activity
B1 (RNF170 RING domain) | 0
QLRRLQEERTCKVCMDKEVSVVFIPCGHLVVCQECAPSLRKCPICRGIIKGTVRTF (BIRC2 RING domain (UniProt Q13490)) | 0
QHHELTSLFECPVCFDYVLPPILQCQAGHLVCNQCRQKLSCCPTCRGALTPSIRNL (SIAH2 RING domain (UniProt O43255)) | 0
RLTMMWEEVTCPICLDPFVEPVSIECGHSFCQECISQVGKGGGSVCPVCRQRFLLKNLRP (TRIM21 RING domain (UniProt P19474)) | 0
YWAMDSTFELCKICAESNKDVKIEPCGHLLCSCCLAAWQHSDSQTCPFCRCEIKGWEAVS (CBLC RING domain (UniProt Q9ULV8)) | 0
B2 (ARK2C RING domain) | 0
B3 (TRIM63 RING domain) | 0
PEELQAMDNVCIICREEMVTGAKRLPCNHIFHTSCLRSWFQRQQTCPTCRMDVLRASLPA (SYVN1 RING domain (UniProt Q86TM6)) | 0
DAIPSLSECQCGICMEILVEPVTLPCNHTLCKPCFQSTVEKASLCCPFCRRRVSSWTRYH (RNF168 RING domain (UniProt Q8IYW5)) | 0
B4 (CUL9 RING domain) | 0

Excerpt of the above (set 3):
Substitution | relative binding score
N177S | 43.2%
V100W | -4.13%
R163D | -0.627%
R46T | -0.49%
D144S | -1.59%
V40W | -0.34%
F66E | 5.61%
N114V | 0.308%
N77V | 57.6%
T39M | 28%
D92Y | 7.54%
Q10A | 45.1%
Y141P | -4.92%
